Results from different studies.
Numbered parts are unrelated; each lists some results of a single study. Positions count from the first letter of the parent shown.

Sample 1
Target: UBE2M UBC core domain (UniProt P61081)
Chain of UniProt P61081 (whole entry, looked up): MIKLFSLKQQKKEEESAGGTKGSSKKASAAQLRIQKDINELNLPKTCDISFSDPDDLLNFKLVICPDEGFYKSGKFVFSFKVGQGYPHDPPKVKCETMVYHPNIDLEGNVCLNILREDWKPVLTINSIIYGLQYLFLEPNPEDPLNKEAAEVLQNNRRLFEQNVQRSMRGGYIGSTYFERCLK
Technique: yeast two-hybrid
Sample: yeast
Notes: mostly zero background
Reference: not given
Reading: higher = stronger interaction
Measurement: lacZ reporter activity
B1: RNF121 RING domain (UniProt Q9H920); chain MPTKHLSDSVCAVCGQQIFVDVSEEGIIENTYRLSCNHVFHEFCIRGWCIVGKKQTCPYCKEKVDLKRMFS
B2: UBOX5 RING domain (UniProt O94941); chain EQPGSILGPECASCKRVFSPYFKKEPVYQLPCGHLLCRPCLGEKQRSLPMTCTACQRPVASQDVLR
B3: RNF19A RING domain (UniProt Q9NV58); chain ISKQIGDFIECPLCLLRHSKDRFPDIMTCHHRSCVDCLRQYLRIEISESRVNISCPECTERFNPHDIR
B4: MAP3K1 RING domain (UniProt Q13233); chain NSIKDEEEQMCPICLLGMLDEESLTVCEDGCRNKLHHHCMSIWAEECRRNREPLICPLCRSKWRSHDFYS
B5: RBCK1 RING domain (UniProt Q9BYM8); chain SLVLNTEPAECPVCYSVLAPGEAVVLRECLHTFCRECLQGTIRNSQEAEVSCPFIDNTYSCSGKLLEREIK
B6: MDM4 RING domain (UniProt O15151); chain MEDCQNLLKPCSLCEKRPRDGNIIHGRTGHLVTCFHCARRLKKAGASCPICKKEIQLVIKVF
AVPSGLEENLCKICMDSPIDCVLLECGHMVTCTKCGKRMNECPICRQYVIRAVHVF (RFFL RING domain (UniProt Q8WZ73)): 0
B1 (RNF121 RING domain): 0
B2 (UBOX5 RING domain): 0
NLSELTPYILCSICKGYLIDATTITECLHTFCKSCIVRHFYYSNRCPKCNIVVHQTQPLY (PCGF6 RING domain (UniProt Q9BYE7)): 0
B3 (RNF19A RING domain): 0
GSDDEEIPFKCFICRQSFQNPVVTKCRHYFCESCALQHFRTTPRCYVCDQQTNGVFNPA (RNF113A RING domain (UniProt O15541)): 0
B4 (MAP3K1 RING domain): 0
B5 (RBCK1 RING domain): 0
KETIKKTTKPCPRCHVPVEKNGGCMHMKCPQPQCRLEWCWNCGCEWNRVCMG (PRKN RING domain (UniProt O60260)): 0
B6 (MDM4 RING domain): 0

Sample 2
Target: Ras GTPase-activating protein-binding protein 1, full length (G3BP1, Homo sapiens, UniProt Q13283)
Chain of UniProt Q13283 (whole entry, looked up): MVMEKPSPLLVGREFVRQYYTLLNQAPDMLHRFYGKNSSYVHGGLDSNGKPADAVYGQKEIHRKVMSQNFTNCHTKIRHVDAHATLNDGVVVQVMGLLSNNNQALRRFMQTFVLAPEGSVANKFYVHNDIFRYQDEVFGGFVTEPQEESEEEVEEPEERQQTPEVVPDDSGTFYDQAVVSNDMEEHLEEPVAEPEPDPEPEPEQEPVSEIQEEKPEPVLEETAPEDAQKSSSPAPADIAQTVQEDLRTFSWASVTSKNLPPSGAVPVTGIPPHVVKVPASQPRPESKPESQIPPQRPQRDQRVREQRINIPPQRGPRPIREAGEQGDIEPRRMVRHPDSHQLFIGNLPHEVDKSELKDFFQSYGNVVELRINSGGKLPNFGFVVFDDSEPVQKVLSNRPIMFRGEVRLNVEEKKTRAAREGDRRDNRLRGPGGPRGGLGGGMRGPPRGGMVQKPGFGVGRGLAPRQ
Technique: RNA Bind-n-Seq
Form: RNA
Sample: in vitro
Concentration: 200 nM
Notes: whole 134-nt RNA, ends assumed
Added: 150 mM KCl
Reference: input library
Reading: higher = stronger binding
Measurement: log2 enrichment
Shared flanks, not repeated: GGGAGUUCUACAGUCCGACGAUC … UGGAAUUCUCGGGUGUCAAGG
UAACUUUAGAGGAGGAUCUGAUGGAUAUGGCUGUGGACGUGGAUUUGGGGAUGGCUAUAAUGGGUAUGGAGGAGGACCUGGAGGUGGCAA: 0.678
UCCUGUGCUACACAUCGUAUGUACCGAAUCAAACCCAAAUUUUUUUAAAUUUUUUUAAAAAAGUAUUAUGUUACGCCGUUCGGAUCUGCA: 0.164
UGGCCCUGGUGGCAUGCGGGGAGGAAGAGGUGGCCUCAUGGAUCGUGGUGGUCCCGGUGGAAUGUUCAGAGGUGGGCGUGGUGGAGACAG: 0.762
UGGGAGGUGGAUUUUGUUUAUUUUUUUAGCUCGUUUCCAGGGGUGGGAAUUUUUUUUUAAUAUGUGUCAUGAAUAAAGUUGUUUUUGAAA: 0.246
AAGUCCUGUGCUACACAUCGUAUGUACCGAAUCGGGUUUUUUUGGGAGGGAAAGGGAAAGUAUUAUGUUACGCCGUUCGGAUCUGCACUU: 0.065
CAAGUCCUGUGCUACACAUCGUAUGUACCGAAUCGGAAAGGUUUUUGGUUUUUGGAAAGUAUUAUGUUACGCCGUUCGGAUCUGCACUUC: -1.28
UCCUCAAGUCCUGUGCUACACAUCGUAUGUACCGAAUCGGGGUGGUGGGUGGAAAGUAUUAUGUUACGCCGUUCGGAUCUGCACUUCCAG: 0.69
UGGGGAGACUACGAUGACAGCGCCUUCAUGGAGCCCAGGUACCACGUCCGUGGAGAAGAUCUGGACAAGCUCCACAGAGCUGCCUGGUGG: -1.45
GUCCUGUGCUACACAUCGUAUGUACCGAAUCGGGUUUUUUUGGGAAAAAGGGAAAGGGAAAGUAUUAUGUUACGCCGUUCGGAUCUGCAC: -0.58

Sample 3
Target: CCNB2, cyclin fold, Cln2 fusion (human)
Technique: yeast growth competition, sequencing
Sample: yeast
Notes: weak parent motif
Reference: not given
Reading: higher = stronger binding
Measurement: normalised enrichment score
Parent: RB1 docking peptide (human); PKPLKKLRFDIEG
PKPLKKLRADIEG [F9A]: 0.576
PKPLKKLRFDAEG [I11A]: 0.642
PKPLKKLRFVIEG [D10V]: 0.906
PSPLKKLRFDIEG [K2S]: 0.499
PKPQKKLRFDIEG [L4Q]: 0.345
PKPNKKLRFDIEG [L4N]: 0.368
PKPLKFLRFDIEG [K6F]: 0.385
PKPLKGLRFDIEG [K6G]: 0.0795
PKPLKPLRFDIEG [K6P]: -0.0295
PKPKKKLRFDIEG [L4K]: 0.0415
PKYLKKLRFDIEG [P3Y]: 0.546
PKPMKKLRFDIEG [L4M]: 0.708
PKPLGKLRFDIEG [K5G]: 0.128
PKPLKKLRFDIEA [G13A]: 0.69
PKPLYKLRFDIEG [K5Y]: 0.676
PKPLAKLRFDIEG [K5A]: -0.227
PKPLKKLRFWIEG [D10W]: -0.0981
PKPLKKGRFDIEG [L7G]: 0.38
PKPLKKLRFDIDG [E12D]: 0.188
FKPLKKLRFDIEG [P1F]: 0.34
PKPLKELRFDIEG [K6E]: -0.386
PKPLKKKRFDIEG [L7K]: 0.795
PKPLKKLRFDTEG [I11T]: -0.214
PVPLKKLRFDIEG [K2V]: 0.483
PKPAKKLRFDIEG [L4A]: 0.594

Sample 4
Target: ATP-dependent RNA helicase DDX3X, helicase core (DDX3X, Homo sapiens, UniProt O00571, residues 132-607)
Chain of UniProt O00571 (132-607, looked up): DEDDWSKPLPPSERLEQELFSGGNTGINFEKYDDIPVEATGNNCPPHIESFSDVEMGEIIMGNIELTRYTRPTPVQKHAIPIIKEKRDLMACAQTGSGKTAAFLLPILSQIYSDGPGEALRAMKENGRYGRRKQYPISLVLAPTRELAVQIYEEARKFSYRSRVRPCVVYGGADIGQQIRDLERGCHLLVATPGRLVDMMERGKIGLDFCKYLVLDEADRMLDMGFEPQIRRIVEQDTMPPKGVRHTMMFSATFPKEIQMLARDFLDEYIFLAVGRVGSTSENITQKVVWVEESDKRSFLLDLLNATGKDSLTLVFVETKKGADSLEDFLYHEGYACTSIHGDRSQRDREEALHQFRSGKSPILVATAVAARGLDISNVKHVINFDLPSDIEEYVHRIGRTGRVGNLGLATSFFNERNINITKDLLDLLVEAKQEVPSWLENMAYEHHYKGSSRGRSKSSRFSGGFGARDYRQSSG
Technique: RNA Bind-n-Seq
Form: RNA
Sample: in vitro
Concentration: 90 pmol
Notes: 4-mer, random 30-nt RNA, single round
Added: 3 µM DMDA-PatA, 2 mM ADP, 2 mM phosphate
Reference: input library
Reading: higher = stronger binding
Measurement: 4-mer enrichment
GAAA: 1.12 fold
AAUA: 1.09 fold
CUUG: 0.765 fold
GUCU: 0.826 fold
CCUA: 0.881 fold
CUGA: 0.812 fold
GCCA: 0.92 fold
CUAU: 0.819 fold
AUCU: 0.808 fold
ACAA: 1.08 fold
AAGU: 1.23 fold
GUAU: 1.05 fold
GGCG: 1.18 fold
CAUC: 0.93 fold
CAGA: 0.979 fold
UGAA: 1.05 fold

Some of these lines once more (sample 3):
PKPLKPLRFDIEG [K6P]: -0.0295
PVPLKKLRFDIEG [K2V]: 0.483
PKPLKKKRFDIEG [L7K]: 0.795
PKPLKKLRFWIEG [D10W]: -0.0981
PKPLKKLRFVIEG [D10V]: 0.906
PKPLYKLRFDIEG [K5Y]: 0.676
FKPLKKLRFDIEG [P1F]: 0.34
PKPLKELRFDIEG [K6E]: -0.386
